Published values collected from several papers.
A part holds a random share of what one study measured. Changes are numbered by the printed parent chain.

Block 1 — effect on: enzyme activity; mode: inhibitor; tested at: 77 µM
Target: DNA polymerase theta, ATPase domain (POLQ, Homo sapiens, UniProt O75417)
UniProt O75417, sequence (whole entry, unmodified, looked up): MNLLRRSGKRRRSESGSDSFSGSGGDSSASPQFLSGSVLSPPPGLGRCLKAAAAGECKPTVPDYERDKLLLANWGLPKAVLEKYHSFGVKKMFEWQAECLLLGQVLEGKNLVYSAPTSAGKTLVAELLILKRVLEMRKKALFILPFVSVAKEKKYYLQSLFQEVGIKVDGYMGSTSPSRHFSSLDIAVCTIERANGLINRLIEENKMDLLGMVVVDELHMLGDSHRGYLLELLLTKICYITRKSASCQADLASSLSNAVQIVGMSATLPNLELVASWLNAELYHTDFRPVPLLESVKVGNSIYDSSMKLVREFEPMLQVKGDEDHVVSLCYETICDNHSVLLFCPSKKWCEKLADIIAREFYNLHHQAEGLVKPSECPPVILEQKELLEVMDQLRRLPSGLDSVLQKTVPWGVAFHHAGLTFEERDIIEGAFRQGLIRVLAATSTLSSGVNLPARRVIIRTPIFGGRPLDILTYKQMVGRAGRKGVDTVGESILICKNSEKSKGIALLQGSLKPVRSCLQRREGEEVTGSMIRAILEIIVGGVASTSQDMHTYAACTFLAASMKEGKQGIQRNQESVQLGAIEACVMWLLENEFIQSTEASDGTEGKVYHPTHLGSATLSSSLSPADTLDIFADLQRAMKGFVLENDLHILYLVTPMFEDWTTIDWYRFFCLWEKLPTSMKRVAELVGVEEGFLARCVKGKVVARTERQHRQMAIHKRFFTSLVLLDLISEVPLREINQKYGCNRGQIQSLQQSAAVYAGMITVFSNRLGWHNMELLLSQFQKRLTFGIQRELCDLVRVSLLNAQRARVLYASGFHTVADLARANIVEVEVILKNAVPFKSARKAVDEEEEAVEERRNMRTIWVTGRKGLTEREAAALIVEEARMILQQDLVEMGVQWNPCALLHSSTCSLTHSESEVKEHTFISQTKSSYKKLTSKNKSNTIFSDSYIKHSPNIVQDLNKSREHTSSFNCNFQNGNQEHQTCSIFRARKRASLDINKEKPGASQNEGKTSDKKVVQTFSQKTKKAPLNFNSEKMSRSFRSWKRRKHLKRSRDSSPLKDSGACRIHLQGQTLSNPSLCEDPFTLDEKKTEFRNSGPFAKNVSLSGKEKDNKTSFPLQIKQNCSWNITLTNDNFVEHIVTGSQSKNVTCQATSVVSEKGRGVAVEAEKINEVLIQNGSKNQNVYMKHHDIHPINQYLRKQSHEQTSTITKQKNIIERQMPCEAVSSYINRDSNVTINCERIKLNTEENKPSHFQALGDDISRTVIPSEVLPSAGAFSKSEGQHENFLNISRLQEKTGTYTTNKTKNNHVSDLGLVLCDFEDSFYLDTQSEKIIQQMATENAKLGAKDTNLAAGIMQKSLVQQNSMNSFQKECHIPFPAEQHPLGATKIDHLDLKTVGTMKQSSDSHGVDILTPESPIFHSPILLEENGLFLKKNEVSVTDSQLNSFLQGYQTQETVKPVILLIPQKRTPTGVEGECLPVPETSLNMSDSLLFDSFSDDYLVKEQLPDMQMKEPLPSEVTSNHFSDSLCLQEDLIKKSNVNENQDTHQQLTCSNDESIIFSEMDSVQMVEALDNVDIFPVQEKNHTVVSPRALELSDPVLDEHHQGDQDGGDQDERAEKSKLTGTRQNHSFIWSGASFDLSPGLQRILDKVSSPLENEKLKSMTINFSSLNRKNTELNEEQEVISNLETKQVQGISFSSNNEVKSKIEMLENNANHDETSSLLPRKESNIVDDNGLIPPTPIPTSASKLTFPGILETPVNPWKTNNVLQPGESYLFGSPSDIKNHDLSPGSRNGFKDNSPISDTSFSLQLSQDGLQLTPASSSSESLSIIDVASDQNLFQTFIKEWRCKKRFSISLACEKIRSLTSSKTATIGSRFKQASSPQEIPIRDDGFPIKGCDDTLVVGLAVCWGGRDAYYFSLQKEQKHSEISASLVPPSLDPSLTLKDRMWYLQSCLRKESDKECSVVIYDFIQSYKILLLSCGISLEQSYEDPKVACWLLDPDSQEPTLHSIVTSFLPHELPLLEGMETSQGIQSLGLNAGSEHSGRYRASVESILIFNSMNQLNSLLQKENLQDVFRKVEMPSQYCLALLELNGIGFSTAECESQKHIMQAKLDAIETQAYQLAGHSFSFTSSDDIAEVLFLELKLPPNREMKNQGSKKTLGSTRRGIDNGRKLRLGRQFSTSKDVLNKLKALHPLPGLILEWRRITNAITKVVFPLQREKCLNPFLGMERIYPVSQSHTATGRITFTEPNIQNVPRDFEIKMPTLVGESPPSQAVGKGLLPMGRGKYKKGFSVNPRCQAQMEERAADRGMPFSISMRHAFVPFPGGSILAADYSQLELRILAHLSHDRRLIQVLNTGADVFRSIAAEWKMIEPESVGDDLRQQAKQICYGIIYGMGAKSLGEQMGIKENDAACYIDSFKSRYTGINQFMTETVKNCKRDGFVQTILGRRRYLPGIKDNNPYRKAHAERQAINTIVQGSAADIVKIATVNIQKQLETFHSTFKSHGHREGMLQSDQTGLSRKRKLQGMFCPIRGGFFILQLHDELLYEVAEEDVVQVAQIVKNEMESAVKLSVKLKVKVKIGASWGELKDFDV
`O=C1C=CC(=O)c2c1ccc1c2ccc2ccccc21` gave a remaining activity of 102%.
`C[N+](C)(C)CC#CCOC(=O)Nc1cccc(Cl)c1` gave a remaining activity of 104%.
For `CN(C)Cc1c[nH]c2ccccc12`, the remaining activity was 102%.
For `CCOC(=O)c1ncn2c1[C@@H]1CCCN1C(=O)c1cc(OC)ccc1-2`, the remaining activity was 102%.

Block 2 — technique: protein-binding microarray; molecule type: hairpin DNA; sample: in vitro; tested at: not given; reference: not given; reading: higher = stronger binding
Target: Runt-related transcription factor 1, full length (RUNX1, Homo sapiens, UniProt Q01196-8, residues 1-480)
Notes: whole hairpin DNA, median over replicate spots
`GAGGCCCAACGGCAACAGCCTCCTGGCTGTTGCCGTTGGGCCTCACACTC (5mC at 10 34)` has a median fluorescence of 1810 a.u.
For `GAGGCCTGTTGTGCTTGGCCTCCTGGCCAAGCACAACAGGCCTCACACTC (5mC at 14)`, the median fluorescence was 1600 a.u.
With `GAGGCCTGTCGCGGCGGGCCTCCTGGCCCGCCGCGACAGGCCTCACACTC (5mC at 15 29)` the median fluorescence was 1890 a.u.
`GAGGCCTGTCGCGGTTGGCCTCCTGGCCAACCGCGACAGGCCTCACACTC` gave a median fluorescence of 2620 a.u.
`GAGGCCTCTTGTGGTTGGCCTCCTGGCCAACCACAAGAGGCCTCACACTC (5mC at 8)` has a median fluorescence of 2950 a.u.
`CTCAGTTCTGTGGGCCGGACTCCTGTCCGGCCCACAGAACTGAGACACTC (5mC at 16)` has a median fluorescence of 1880 a.u.
`GAGGCCCAACCGCCGCAGCCTCCTGGCTGCGGCGGTTGGGCCTCACACTC (5mC at 14)` gave a median fluorescence of 2800 a.u.
The median fluorescence of `CTCAGTTCTCGGGGCTGGACTCCTGTCCAGCCCCGAGAACTGAGACACTC (5mC at 34)` is reported as 1690 a.u.

Block 3 — target: inorganic phosphate, free oxyanion; technique: microfluidic competitive inhibition; sample: in vitro, cell-free expressed; tested at: not given; reading: lower = stronger binding
Notes: derived from inhibition constants, unchanged parent 615000 nM
Parent: PafA, mature enzyme, eGFP fusion (Elizabethkingia meningoseptica, UniProt Q9KJX5); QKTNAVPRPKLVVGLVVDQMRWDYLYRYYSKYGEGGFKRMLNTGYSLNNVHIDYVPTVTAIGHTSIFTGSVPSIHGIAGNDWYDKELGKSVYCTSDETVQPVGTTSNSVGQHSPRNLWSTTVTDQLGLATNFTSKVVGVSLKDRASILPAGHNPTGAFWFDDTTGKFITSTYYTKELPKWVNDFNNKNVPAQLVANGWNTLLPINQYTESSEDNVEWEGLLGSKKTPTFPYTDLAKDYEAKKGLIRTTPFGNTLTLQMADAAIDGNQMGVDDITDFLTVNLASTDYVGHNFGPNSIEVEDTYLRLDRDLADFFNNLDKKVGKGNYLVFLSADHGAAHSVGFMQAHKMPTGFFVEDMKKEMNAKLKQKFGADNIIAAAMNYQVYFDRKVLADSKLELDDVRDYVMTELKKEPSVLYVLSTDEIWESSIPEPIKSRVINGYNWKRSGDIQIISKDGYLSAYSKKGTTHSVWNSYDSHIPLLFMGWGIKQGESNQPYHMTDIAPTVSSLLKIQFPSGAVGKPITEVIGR
`G445A` — result for “phosphate dissociation constant”: 415 µM.
Under “phosphate dissociation constant”, `Q1G` is recorded as 640 µM.
`L254G`: “phosphate dissociation constant” 598 µM.
Under “phosphate dissociation constant”, `R8V` is recorded as 616 µM.
`L128V`: “phosphate dissociation constant” 639 µM.
`N440V` — result for “phosphate dissociation constant”: 577 µM.
For `A145G`, “phosphate dissociation constant” read 884 µM.
Under “phosphate dissociation constant”, `D300V` is recorded as 310 µM.
`H333V`: “phosphate dissociation constant” 500 µM.
`N437G` — result for “phosphate dissociation constant”: 548 µM.
For `T123G`, “phosphate dissociation constant” read 616 µM.
`D53G`: “phosphate dissociation constant” 410 µM.
`K225V` — result for “phosphate dissociation constant”: 608 µM.
For `I485G`, “phosphate dissociation constant” read 645 µM.
`D385V`: “phosphate dissociation constant” 631 µM.
`F312G`: “phosphate dissociation constant” 572 µM.
For `A78G`, “phosphate dissociation constant” read 526 µM.
Under “phosphate dissociation constant”, `P493V` is recorded as 623 µM.
For `N196G`, “phosphate dissociation constant” read 537 µM.
`G36A`: “phosphate dissociation constant” 619 µM.
Under “phosphate dissociation constant”, `Y459G` is recorded as 533 µM.
`L394G`: “phosphate dissociation constant” 601 µM.
For `E34G`, “phosphate dissociation constant” read 600 µM.
`R400G` — result for “phosphate dissociation constant”: 596 µM.
`T155V`: “phosphate dissociation constant” 667 µM.

Block 4 — target: CCND1, cyclin fold, Cln2 fusion (human); technique: yeast growth competition, sequencing; sample: yeast; notes: strong parent motif; reference: not given; reading: higher = stronger binding
Parent: viral docking peptide; KGVKRKLFAEDSS; partner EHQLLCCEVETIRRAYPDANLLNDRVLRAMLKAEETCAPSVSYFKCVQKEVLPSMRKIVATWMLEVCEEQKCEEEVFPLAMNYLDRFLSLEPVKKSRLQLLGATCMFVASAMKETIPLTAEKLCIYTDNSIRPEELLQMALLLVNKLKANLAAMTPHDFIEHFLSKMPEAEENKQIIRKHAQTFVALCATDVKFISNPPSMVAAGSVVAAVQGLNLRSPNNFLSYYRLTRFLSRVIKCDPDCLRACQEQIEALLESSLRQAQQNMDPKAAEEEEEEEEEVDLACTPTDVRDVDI
For `K6R`, “normalised enrichment score” read 1.54.
Under “normalised enrichment score”, `S12H` is recorded as 1.
`D11H`: “normalised enrichment score” 0.504.
Under “normalised enrichment score”, `S12F` is recorded as 1.34.
`E10F`: “normalised enrichment score” 0.474.
Under “normalised enrichment score”, `F8E` is recorded as 0.154.
`D11K`: “normalised enrichment score” 0.566.
`D11W`: “normalised enrichment score” 0.292.
Under “normalised enrichment score”, `K4M` is recorded as 0.546.
Under “normalised enrichment score”, `K4C` is recorded as 4.17.
For `A9K`, “normalised enrichment score” read 0.326.
For `F8V`, “normalised enrichment score” read 0.21.
`K4P`: “normalised enrichment score” 0.639.
Under “normalised enrichment score”, `R5K` is recorded as 0.241.
`K6L` — result for “normalised enrichment score”: 0.447.
`S12T` — result for “normalised enrichment score”: 1.4.
`K4G` — result for “normalised enrichment score”: 0.466.
Under “normalised enrichment score”, `L7R` is recorded as 0.172.
Under “normalised enrichment score”, `V3M` is recorded as -0.219.
Under “normalised enrichment score”, `L7Y` is recorded as 0.105.
Under “normalised enrichment score”, `A9G` is recorded as 0.842.
Under “normalised enrichment score”, `L7S` is recorded as 0.073.
For `K4A`, “normalised enrichment score” read 3.27.
`E10D`: “normalised enrichment score” 2.3.
For `F8W`, “normalised enrichment score” read 0.0515.

Repeated from above (block 3):
`N437G` — result for “phosphate dissociation constant”: 548 µM.
For `T123G`, “phosphate dissociation constant” read 616 µM.
`D53G`: “phosphate dissociation constant” 410 µM.
`K225V` — result for “phosphate dissociation constant”: 608 µM.
For `I485G`, “phosphate dissociation constant” read 645 µM.
